Assay results pooled from the literature.
Each line is one published result; not all experiments were run side by side. ± gives the spread as reported.

| Structure (SMILES) | test | test system | conditions | scale | measurement | value |
| --- | --- | --- | --- | --- | --- | --- |
| NC[C@@H](C(=O)Nc1ccc(-c2cn[nH]c2)cc1)c1ccccc1 | OECD 405 eye irritation | New Zealand White rabbit, eye | topical, 0.1%, 80 h (day 4) | direction not given | total eye irritation score | 0 |
| CCn1c(=O)n(CCO)c(=O)c2c1nc(/C=C/c1ccc(OC)c(OC)c1)n2C |  | healthy humans, plasma | oral, 40 mg, added: rifampin 600 mg/day | relative to: without rifampin | change in AUClast | -68% |
| C[C@](C#N)(COc1cc(C#N)ccc1C(F)(F)F)NC(=O)c1ccc(S(=O)(=O)C(F)(F)F)cc1 |  | calves, plasma | oral, 2.5 mg/kg of monepantel |  | last detectable time | ≤ 216 h |
| C=C(c1ccc(C(=O)O)c(F)c1)c1cc2c(cc1C)C(C)(C)C=CC2(C)C |  | Sprague-Dawley rat, male, plasma | oral, 100 mg/kg, 6 h, sesame oil vehicle |  | LDL level | 9 ± 3.6 mg/dL |
| Oc1ccc2ccccc2c1/N=N/c1ccccc1 |  | rat whole blood | 16.0 µg/L, freeze-thaw cycle 1 |  | freeze-thaw stability deviation | -1% |
| COc1cc(-c2nc3ccccc3s2)cc(CN(Cc2ccccn2)Cc2ccccn2)c1O |  | methanol-water | 50 µM, 0.1 M NaCl |  | pKa1 | 4.88 |
| COc1ccc2cc(-c3ccc(-c4ccc(C)cn4)nc3)oc2c1 | TCSPC | water, HEPES 100 mM | pH 7.4, zinc complex |  | radiative decay rate constant | 0.06 ns⁻¹ |
| CC(C)[C@H](NC(=O)CNC(=O)[C@H](CCC(N)=O)NC(=O)[C@H](C)N)C(=O)O |  | human | up to 30 mg/kg three times daily, 3 days |  | Cmax increase over dose-proportional | 126% |
| COCC1CN(C2CCN(c3cc(OC)c(Nc4ncc(Br)c(Nc5ccc6c(c5P(C)(C)=O)OCCO6)n4)cc3C)CC2)C1 |  | human | oral, dose not given | relative to: patients | grade ≥3 loss of appetite | 3.7% |
| C[C@]12CC[C@@H]3c4ccc(OCC(=O)N[C@@H](CCCCNC(=O)CN5CCN(CC(=O)[O-])CCN(CC(=O)[O-])CCN(CC(=O)[O-])CC5)C(=O)O)cc4CC[C@H]3[C@@H]1CCC2=O.[68Ga+3] |  | female Balb/c mice | 45 min |  | liver uptake | 2.9 ± 0.58 %IA/g |
| CCOC(=O)C(Cc1cccc(O)c1)OC(=O)C=Cc1ccc(O)c(O)c1C=Cc1ccc(O)c(O)c1 (centres unmarked) |  | normal mice | dose not given |  | liver and kidney function markers | no effect |
| CCCC(CCC)NC(=O)c1ccc(O)c(O)c1 |  | male Sprague-Dawley rats, plasma | oral, 50 mg/kg of parent drug | relative to: 50 over 20 mg/kg dose | AUC(0-last) ratio | 13.8 |
| COC(=O)C1OC(Oc2c(-c3ccccc3)oc3cc(O)c(O)c(O)c3c2=O)C(O)C(O)C1O (centres unmarked) |  | BALB/c mouse, thymus | 1 mg/kg |  | organ weight | 0.25 ± 0.03 g |
| COc1cc2c(cc1OC)CN(CCCCn1ccc3cc(OCC[18F])ccc31)C2 |  | male ICR mice | intravenous, 30 min post-injection |  | liver uptake | 18.1 ± 1.16 %ID/g |
| CCCC[C@@H]1NC(=O)[C@@H](NC(=O)[C@H](CCC(=O)O)NC(=O)CNC(=O)CN2CCN(CC(=O)O)CCN(CC(=O)O)CCN(CC(=O)O)CC2)CCCCNC(=O)C[C@@H](C(N)=O)NC(=O)[C@H](C(C)C)NC(=O)[C@@H]2CCCN2C(=O)[C@H](CCCNC(=N)N)NC(=O)CNC(=O)[C@H](Cc2c[nH]c3ccccc23)NC(=O)[C@H](CCCNC(=N)N)NC(=O)[C@@H](Cc2ccccc2)NC(=O)[C@H](Cc2c[nH]cn2)NC(=O)[C@H](CCC(=O)O)NC1=O [gallium-67 labelled] |  | C57 mice with B16/F1 melanoma | intravenous, 0.037 MBq/mouse, 0.5 h | relative to: tumour over liver | tumour to liver ratio | 12.4 |
| CC1=CC(C)=[O+][Pt-2]([NH3+])([NH3+])[O]1.CC1=CC(C)=[O+][Pt-2]([NH3+])([NH3+])[O]1.O=S(=O)([O-])[O-] (centres unmarked) | 1H NMR | water | up to 25 d, 37 °C |  | chemical stability | no effect |

| Structure (SMILES) | test | test system | conditions | scale | measurement | value |
| --- | --- | --- | --- | --- | --- | --- |
| COc1cc2ncnc(Oc3ccc4c(C(N)=O)c(C)oc4c3)c2cc1OC |  | human, moderate hepatic impairment, plasma | oral, dose not given, dose-normalized, metabolite | relative to: normal hepatic function | decrease in AUC(0-inf) | 1% |
| CC(C)CCCC(C)CCCC(C)CCO[C@@H]1O[C@H](CO)[C@@H](O[C@H]2O[C@H](CO)[C@@H](O)[C@H](O)[C@H]2O)[C@H](O)[C@H]1O (some centres unmarked) | dynamic surface tension |  | 0.0145 mmol/L |  | equilibrium surface tension | 32.1 mN/m |
| O=c1nc(NO)ccn1[C@@H]1O[C@H](CO)[C@@H](O)[C@H]1O | RT-PCR, item: CYP3A1 | normal rat, liver | oral, 80 mg/kg twice daily, 5 days | relative to: untreated rats | mRNA level | 0.2 fold |
| O=C(C1CC1)N1CC=C(c2cc3c(Nc4cc5ncsc5cc4F)ncnc3s2)CC1 |  | human liver microsomes | 1 µM |  | intrinsic clearance | < 12 mL/min/g protein |
| Cn1c(=O)oc2ccc(-c3ccc(CC(C#N)NC(=O)C4CNCCCO4)c(F)c3)cc21 (centres unmarked) |  | human | oral, 40 mg once daily, treatment-related AE, multiple ascending dose |  | triglycerides increased incidence | 33.3% |
| O=C(O)[C@@H]1C[C@@H](O)CN1C(=O)[C@@H]1CCCN1 | potentiometric titration | water | 40 °C, 0.15 mol/dm3 NaCl |  | pKa1 | < 2 |
| O=C(O[C@H](CO)C(F)(F)F)N1C[C@@H]2[C@H](C1)[C@H]2c1ccn(-c2ccc([18F])nc2)n1 |  | Sprague-Dawley rat, plasma | dose not given, 5 min |  | parent fraction of radioactivity | 70% |
| O=C(NCCCN(CCCCN(CCCNC(=O)c1cccc(=O)n1[O-])C(=O)c1cccc(=O)n1[O-])C(=O)c1cccc(=O)n1[O-])c1cccc(=O)n1[O-].[89Zr+4] | radio-TLC | PBS | 7 d, pH 7.4, 37 °C, added: Mg^2+ 10-fold excess |  | intact complex | 98.7 ± 1.8% |
| C=C(C)C(=O)Nc1ccc(-c2c(-c3ccc(Oc4nccc(C)n4)cc3)c3c(N)ncnc3n2C)cc1 | metabolic stability | dog, hepatocytes |  |  | hepatocyte CLint | 28 µL/min/10⁶ cells |
| Cc1ccc(OCC(=O)N(Cc2cccs2)c2ccn[nH]2)cc1 |  | beagle dog, male, plasma | oral gavage, 30 mg/kg |  | oral bioavailability | 0.79% |
| C=C(c1cc(F)c(C(=O)O)c(F)c1)c1cc2c(cc1C)C(C)(C)CCC2(C)C |  | Sprague-Dawley rat, male | oral, 100 mg/kg, 6 h, sesame oil vehicle |  | blood triglycerides | 191 ± 56.7 mg/dL |
| N=C(N)NCCC[C@@H]1NC(=O)[C@H](Cc2c[nH]c3ccccc23)NC(=O)[C@@H](CC2CCCCC2)NC(=O)[C@@H]2CCCN2C(=O)[C@@H](NC(=O)CCc2ccccc2)CCCNC1=O |  | C57BL/6J mice, brain | intravenous, 1 mg/kg, two-compartment model |  | apparent central volume (V1/F) | 0.13 µg/(ng/g) |
| NCCC(=O)N1Cc2ccccc2-c2c(nnn2-c2cn(C3OC(CO)C(O)C3O)c(=O)[nH]c2=O)-c2ccccc21 (mixture of isomers) |  | methanol | red edge of spectrum |  | second excitation maximum | 370 nm |
| CCCCC1NC(=O)c2ccccc21 (racemic) |  | Wistar rat, plasma | oral, 10 mg/kg |  | CL/F | 12.9 mL/min/kg |
| N#Cc1nc(N2CCOCC2)nc(N(Cc2ccc(F)cc2)CC2CCCNC2)n1 (centres unmarked) |  | CD-1 mouse female | intraperitoneal, 10 mg/kg | relative to: brain over plasma | brain/plasma AUC ratio | 0.15 |
| C[Si]1(C[C@@H](CN)CC(=O)O)CCCC1 | neuromuscular coordination | Wistar rat male | oral, 300 mg/kg, 1 h |  | performance time | 180 s |
